Measured values of several laboratories.
Each line is one published result; not all experiments were run side by side. Values joined by “and” are separate records of one study, mostly repeats; a detail may differ. ± gives the spread as reported. Values after ≈ are worked out from the molar mass of the structure shown.

Compound	organism	assay	test system	setting	scale	measurement	value
CC(CCC(=O)[O-])C1CCC2C3CCC4CC(O)CCC4(C)C3CCC12C.C[N+](C)(C)CC(O)CC(=O)O (stereo not shown)	Shigella flexneri		ATCC 9199	1 mg per disc, 18 to 24 h, 37 °C		antibacterial activity	inactive
[Cl-].[Cl-].[Mn+2].c1ccc(CN2CCNCCN(Cc3ccccc3)CCNCC2)cc1	Leishmania donovani		THP-1-derived macrophages, intracellular amastigotes			IC50	1.02 µM
CCCCc1ccc(-c2nc(C)c(C(C)=NNC(=N)N)s2)cc1	Staphylococcus aureus		USA400 MRSA			MBC	1.3 µg/mL (≈ 3.95 µM)
COc1ccc(S(=O)(=O)NCc2c[nH]nc2-c2cccs2)cc1	Plasmodium falciparum		Dd2-B2	3216 nM, 60 d, 3× EC90		log10 minimum inoculum for resistance	8 and 8.01
F[P-](F)(F)(F)(F)F.F[P-](F)(F)(F)(F)F.[Cu+2].c1ccc(CN2CCCNCCN(Cc3ccccc3)CCCNCC2)cc1	Leishmania donovani	parasite growth, resazurin		72 h, amastigote		IC90	> 15 µM
COc1ccc(-c2oc3ccc(-c4cc(OC)c(OC)c(OC)c4)cc3c2C#CC(C)(C)O)cc1	hepatitis C virus	viral entry, HCV pseudoparticle entry	genotype 1b	10 µM	reference: DMSO	remaining activity	79.1%
CC[C@H](C)[C@H](NC(=O)CNC(=O)[C@H](CO)NC(=O)[C@H](CC(C)C)NC(=O)[C@@H](N)Cc1ccccc1)C(=O)N[C@H](C(=O)NCC(=O)N[C@@H](CCSC)C(=O)N[C@@H](CC(C)C)C(=O)NCC(=O)N[C@@H](CCCCN)C(=O)N[C@@H](CC(C)C)C(=O)N[C@@H](Cc1ccccc1)C(N)=O)C(C)C	Leishmania amazonensis	intracellular amastigote growth, Giemsa staining	infected macrophages	24 h		IC50	6.8 ± 2.82 µM
CC(=O)[O-].CN1CCN2CCN(CC1)CCN(Cc1ccccc1)CC2.F[P-](F)(F)(F)(F)F.[Cu+2]	Leishmania donovani	parasite growth, resazurin		72 h, promastigote		IC90	> 20 µM
CC[C@@H](C)[C@@H](NC(=O)[C@@H](C)NC(=O)[C@@H](CCCCN)NC(=O)[C@@H](CC(C)C)NC(=O)[C@@H](C)NC(=O)[C@H](NC(=O)[C@@H](Cc1c[nH]cn1)NC(=O)[C@@H](CC(C)C)NC(=O)[C@H](NC(=O)[C@H](NC(=O)[C@@H](CCCCN)NC(=O)[C@@H](CCCCN)NC(=O)[C@@H](C)NC(=O)[C@@H](CO)NC(=O)[C@@H](CCCCN)NC(=O)[C@@H](Cc1ccccc1)NC(=O)[C@H](NC(=O)[C@@H](CCCCN)NC(=O)[C@@H](CC(C)C)NC(=O)[C@@H](Cc1ccccc1)NC(=O)[C@@H](CO)NC(=O)[C@@H](CCCCN)NC(=O)[C@@H](Cc1c[nH]c2ccccc12)NC(=O)[C@@H](CCCCN)NC(C)=O)[C@H](C)O)[C@H](C)O)C(C)C)[C@H](C)O)C(=O)N[C@H](CO)C(=O)N[C@H](CO)C(N)=O	Rhizomucor		clinical isolate	48 h, 30 °C		MIC90	6.3 µg/mL (≈ 2.11 µM)
CC(=O)[O-].O.S=c1[nH]c2ccccc2[nH]1.S=c1[nH]c2ccccc2[nH]1.[Ag+].c1ccc(P(c2ccccc2)c2ccccc2)cc1.c1ccc(P(c2ccccc2)c2ccccc2)cc1	Staphylococcus epidermidis		MTCC 435, DMSO	0.1 mL of 50 mg/mL in 8 mm well, 18 to 24 h		inhibition zone diameter	12 mm
CC(=O)[O-].F[P-](F)(F)(F)(F)F.[Co+2].c1ccc(CN2CCCN3CCN(CCCN(Cc4ccccc4)CC3)CC2)cc1	Leishmania donovani	parasite growth	THP-1 macrophages	intracellular amastigotes		IC90	> 15 µM
CN[C@@H]1[C@H](O)[C@H](NC)[C@H]2O[C@]3(O)[C@H](O[C@@H]2[C@H]1O)O[C@H](C)C[C@@]3(O)CNCc1ccc(Cl)cc1	Neisseria meningitidis		ATCC 13077	40 µg per disc		inhibition zone diameter	16 to 18 mm
CCn1c(-c2ccc(-c3ccc(F)cc3)cc2)c(-c2ccc(-c3ccc(F)cc3)cc2)n(CC)c1=[Se+][Au-][P+](CC)(CC)CC.[Cl-]	Acinetobacter baumannii, carbapenem-resistant	refers to: IL-6, TNF-alpha	BALB/c mouse, skin wound infection, wound tissue	dose not given, day 14	reference: untreated infected	proinflammatory gene expression	decreased
